Measurements gathered from unrelated publications.
± gives the spread as reported.

CN(C)CC[C@H](CSc1ccccc1)Nc1ccc(S(=O)(=O)Nc2ccc(N3CCNCC3)cc2)cc1[N+](=O)[O-] — IC50 (NCI-H1417; cell growth or viability; 96 h): > 10 µM
CC#CC(=O)N1CC[C@@H](n2c(=O)n(-c3ccc(Oc4ccccc4)cc3)c3c(N)ncnc32)C1 — IC50 (OCI-Ly10; cell growth or viability, CCK-8; 72 h): 9.13 µM
Cn1cc(CNCC2CCN(c3ncc(C(=O)NO)cn3)CC2)c2ccccc21 — IC50 (NCI-H460; cell viability): 0.03 to 0.043 µM
NC(=S)N/N=C\c1ccc(OCc2cn(CC(=O)Nc3nc4ccccc4s3)nn2)cc1 — IC50 (T47D; cell growth or viability, MTT; 48 h): 54 µM
COc1ccc([C@H](CC(=O)O)N2CCN(CCCc3ccc4c(n3)NCCC4)C2=O)cn1 — IC50 (human primary kidney fibroblasts; RT-PCR, refers to: PAI-1 mRNA; 24 h, with: TGF-β 5 ng/mL): 0.163 µM
O=c1[nH]c2ccccc2nc1/C=C/c1ccccc1Cl — IC50 (B16-F10; cell growth or viability, MTT; 72 h): 5.65 µM
Fc1ccc2nc(-c3ccc(OCCN4CCOCC4)cc3)[nH]c2c1 — IC50 (Z-138; cell growth or viability, MTS; 72 h): ≥ 65.7 µM
CC(C)c1cccc(C(C)C)c1N1CCN(c2c(C(C)C)cccc2C(C)C)[C]1=[Au][Se]c1ccccc1 — IC50 (Vero E6; cytotoxicity, crystal violet staining; 96 h): > 100 µM
O=c1c(/C=C/c2ccccc2Br)nc2ccccc2n1Cc1ccccc1 — IC50 (B16-F10; cell growth or viability, MTT; 72 h): 16.9 µM
NCC[C@@H]1NC(=O)c2coc(n2)-c2coc(n2)-c2cccc(c2)-c2cccc(c2)-c2nc(co2)-c2nc(co2)CNC1=O — IC50 (KB-3-1; cytotoxicity, MTT; 4 days): ≥ 5 µM
CS(=O)(=O)c1ccc2nc(NC(=O)Cn3cc(COc4ccc(/C=N/NC(=O)c5ccncc5)cc4)nn3)sc2c1 — IC50 (T47D; cell growth or viability, MTT; 48 h): 46 µM
O=c1cc(-c2ccccc2)oc2cc(O)cc(O)c12 — IC50 (Jurkat; cell growth or viability, ATP luminescence; 24 h): 180 µM
CC(C)C[C@H](NC(=O)[C@@H](NC(=O)[C@@H]1CCCN1C(=O)[C@@H](NC(=O)[C@H](CO)NC(=O)[C@@H](NC(=O)[C@H](CCC(N)=O)NC(=O)[C@@H]1CCCN1C(=O)[C@@H](NC(=O)[C@H](CCCCN)NC(=O)[C@H](CCCCN)NC(=O)[C@@H](NC(=O)[C@H](Cc1ccc(O)cc1)NC(=O)[C@H](CCCNC(=N)N)NC(=O)[C@@H](NC(=O)[C@@H](N)CC(C)C)C(C)C)[C@@H](C)O)C(C)C)C(C)C)[C@@H](C)O)[C@@H](C)O)C(=O)O — IC50 (SUP-T1; cell migration, inhibitor): 682 µM
CCCC[C@@H](C=O)NC(=O)[C@H](CC(C)C)NC(=O)OCc1ccccc1 — IC50 (H4 cells overexpressing human APP K595N/M596L; amyloid beta secretion, MSD immunoassay, refers to: amyloid beta 40; 24 h): 7.4 µM
O=C(NO)c1ccc(-c2cccc3ccccc23)cc1 — IC50 (urothelial cancer cell lines; cell viability, CellTiter-Glo; 72 h): 9 to 21 µM
COc1cccc2c1C(=O)c1c(O)c3c(c(O)c1C2=O)C[C@@](O)(C(=O)CO)C[C@@H]3O[C@H]1C[C@H](N)[C@H](O)[C@H](C)O1 — IC50 (MCF7 multidrug-resistant; cell growth, MTT; 24 h): > 100 µM
O=c1c(/C=C/c2ccccc2Cl)nc2ccccc2n1Cc1ccccc1 — IC50 (B16-F10; cell growth or viability, MTT; 72 h): 3.93 µM
CN(C)C(=O)CCSC(SCCC(=O)O)c1cccc(/C=C/c2ccc3ccc(Cl)cc3n2)c1 (stereo not shown) — IC50 (HepG2.A64, entecavir-resistant; cell growth; 96 h): 39.5 ± 0.05 µM
O=c1[nH]c2ccccc2nc1/C=C/c1ccc(F)cc1 — IC50 (B16-F10; cell growth or viability, MTT; 72 h): 4.96 µM
CC(=O)O[C@H]1C(=O)[C@@]2(C)[C@H]([C@H](OC(=O)c3ccccc3)[C@]3(O)C[C@H](OC(=O)[C@H](O)[C@@H](NC(=O)c4ccccc4)c4ccccc4)C(C)=C1C3(C)C)[C@]1(OC(C)=O)CO[C@@H]1C[C@@H]2O — IC50 (iPSC-derived sensory neurons; neurite length, high-content imaging; 48 h): 0.005 µM
COc1cc2c(cc1O)CC[C@@H]1[C@@H]2CC[C@]2(C)[C@@H](O)CC[C@@H]12 — IC50 (GPER-transduced Sf9; ERK phosphorylation, inhibitor, immunoblotting; 15 min): 1e-05 µM
C/C(=C\CC/C(C)=C/CC[C@]1(C)CCc2cc(O)cc(C)c2O1)CC/C=C(\C)C(=O)O — IC50 (differentiated HL-60; LTB4 formation; 30 min pre-incubation, with: thapsigargin): 7.5 µM
CN1CCN(c2ccc3nc(-c4c(N)c5c(F)cccc5[nH]c4=O)[nH]c3c2)CC1 — IC50 (B16-F10; cell growth or viability, MTT; 72 h): 29.6 µM
COc1cc(F)c([C@@H]2CNC(=O)[C@H]2NC(=O)Nc2ccccc2)c(F)c1 — IC50 (differentiated HL-60 FPR1-deficient; chemotaxis, antagonist; with: serum amyloid A): 0.014 µM
[NH2][Pt]12([NH2])([O]C(=O)CC(=O)[O]1)[O]C(=O)CC(=O)[O]2 — IC50 (CH1; cell viability, MTT; 96 h): 32 ± 9 µM
C=CC(C)(O)Cc1cc(CC(=O)c2ccc(O)cc2O)c(O)cc1O (stereo not shown) — IC50 (Hepa-1c1c7; cell growth or viability): > 100 µM
CCN(CC)CCOc1ccc(-c2nc3ccc(F)cc3[nH]2)cc1F — IC50 (Z-138; cell growth or viability, MTS; 72 h): 11.5 µM
O=c1ncccn1[C@@H]1O[C@H](CO)[C@@H](O)[C@H]1O — IC50 (HuCCT-1; cell growth or viability, MTT; 72 h): 149 µg/mL
O=c1c(O)c(-c2ccc(O)c(O)c2)oc2cc(O)cc(O)c12 — IC50 (Jurkat; cell growth or viability, ATP luminescence; 24 h): 10 µM
Cn1c(=O)c(/C=C/c2ccccn2)nc2ccccc21 — IC50 (NCI-H460; cell growth or viability, MTT; 72 h): 5.78 µM
Nc1nc2[nH]c(CCCc3ccc(C(=O)O)s3)cc2c(=O)[nH]1 — IC50 (CHO RT16 (human FRα); cell growth; with: folic acid 200 nM): > 1 µM
N=C(N)NCCC[C@H](NC(=O)[C@@H]1CSSC[C@H](NC(=O)[C@H](Cc2ccc3ccccc3c2)NC(=O)[C@H](CCCNC(=N)N)NC(=O)[C@H](CCCNC(=N)N)NC(=O)c2ccc(F)cc2)C(=O)N[C@@H](Cc2ccc(O)cc2)C(=O)N[C@@H](CCCNC(N)=O)C(=O)N[C@@H](CCCCN)C(=O)N[C@H](CCCCN)C(=O)N2CCC[C@H]2C(=O)N[C@@H](Cc2ccc(O)cc2)C(=O)N[C@@H](CCCNC(=N)N)C(=O)N[C@@H](CCCNC(N)=O)C(=O)N1)C(N)=O — IC50 (Jurkat; cell migration; 3 h): 0.001 µM
COc1cccc2c1C(=O)c1c(O)c3c(c(O)c1C2=O)C[C@@](O)(C(=O)CO)C[C@@H]3O[C@H]1C[C@H](N)[C@H](O)[C@H](C)O1 — IC50 (HCT-15/ADM2; cell growth, XTT; 72 h): 1.11 µg/mL
CSC1=NC(=N)C(=NNc2ccc(S(=O)(=O)Nc3ncccn3)cc2)C(N)=C1C#N — IC50 (A-431; cell growth or viability, MTT; 48 h): 20.3 µM
substance P — IC50 (LAD2 mast cells, IgE-sensitized; FcεRI surface expression decrease, flow cytometry; 24 h): 22.5 µg/mL
COc1cccc(/C=C/c2nc3ccccc3[nH]c2=O)c1OC — IC50 (B16-F10; cell growth or viability, MTT; 72 h): 5.83 µM
Clc1ccc2nc(-c3ccc(OCCN4CCOCC4)cc3)[nH]c2c1 — IC50 (Z-138; cell growth or viability, MTS; 72 h): 47 µM
CC(C)Oc1ccc(C(=O)Cn2ccnc2)cc1-n1c(CN2CCN(C(=O)COc3ccc(Cl)cc3)CC2)nc2ccccc2c1=O — IC50 (U2932; cell viability, CellTiter-Glo; 24 h): > 10 µM
N.N.O=C([O-])C1(C(=O)[O-])CCC1.[Pt+2] — IC50 (H838; cell viability, MTT; 4 h, with: cimetidine 3 mmol/L): 265 ± 16.7 µM
CC(=O)OCc1ccc(C=O)o1 — IC50 (Hepa-1c1c7; cell growth or viability): > 100 µM
O=c1c(/C=C/c2ccccc2)nc2ccccc2n1Cc1ccccc1 — IC50 (B16-F10; cell growth or viability, MTT; 72 h): 14.2 µM
CC(=O)c1c(C)c2cnc(Nc3ccc(N4CCNCC4)cn3)nc2n(C2CCCC2)c1=O — IC50 (ZR-75-1; cell growth or viability; 6 days): 0.759 µM
CS(=O)(=O)c1ccc2nc(NC(=O)Cn3cc(COc4ccc(/C=N\NC(N)=S)cc4)nn3)sc2c1 — IC50 (T47D; cell growth or viability, MTT; 48 h): 130 µM
CCCCCCNC(=O)n1cc(F)c(=O)[nH]c1=O — IC50 (MH-22A; cell viability, MTT; 72 h): 43 µM
CC(C)=CCC/C(C)=C/CC/C(C)=C/CC[C@]1(C)CCc2cc(O)cc(C)c2O1 — IC50 (differentiated HL-60; LTB4 formation; 30 min preincubation, with: thapsigargin): ~5 µM
CCOC(=O)C(=NNc1ccc(S(=O)(=O)Nc2ncccn2)cc1)C(=O)OCC — IC50 (A-431; cell growth or viability, MTT; 48 h): 6.38 µM
CC(=O)c1cc(C(=O)N[C@@H](C)Cn2ccc(-c3ccc(C#N)c(Cl)c3)n2)[nH]n1 — IC50 (VCaP; cell growth or viability, ATP luminescence): 0.5 µM
C=CC(=O)N1CCC(Oc2cc3c(Nc4ccc(Cl)c(Cl)c4F)ncnc3cc2OC)CC1 — IC50 (A-431; cell viability, CellTiter-Glo; 72 h): < 0.1 µM
COC(=O)c1ccc(O)c(O)c1 — IC50 (Hepa-1c1c7; cell growth or viability): > 100 µM
CC(=O)OC[C@H]1O[C@@H]([S-])[C@H](OC(C)=O)[C@@H](OC(C)=O)[C@@H]1OC(C)=O.CCP(CC)CC.[Au+] — IC50 (Vero E6; cytotoxicity, crystal violet staining; 96 h): 2.6 ± 0.1 µM
Fc1cc(-c2nc3ccc(Cl)cc3[nH]2)ccc1OCCN1CCOCC1 — IC50 (Z-138; cell proliferation, MTS; 72 h): 80.5 µM
N=C(N)NCCC[C@H](NC(=O)[C@H](CCCNC(=N)N)NC(=O)[C@H](Cc1c[nH]c2ccccc12)NC(=O)[C@H](CCC(N)=O)NC(=O)[C@H](Cc1c[nH]c2ccccc12)NC(=O)[C@H](CCCNC(=N)N)NC(=O)[C@H](Cc1c[nH]c2ccccc12)NC(=O)[C@H](CCC(N)=O)NC(=O)[C@H](Cc1c[nH]c2ccccc12)NC(=O)[C@H](CCCNC(=N)N)NC(=O)[C@@H](N)CCCNC(=N)N)C(N)=O — IC50 (MCF-12; cell viability, MTT; 2 h): 111 µM

A few entries again:
COc1cc2c(cc1O)CC[C@@H]1[C@@H]2CC[C@]2(C)[C@@H](O)CC[C@@H]12 — IC50 (GPER-transduced Sf9; ERK phosphorylation, inhibitor, immunoblotting; 15 min): 1e-05 µM
C=CC(=O)N1CCC(Oc2cc3c(Nc4ccc(Cl)c(Cl)c4F)ncnc3cc2OC)CC1 — IC50 (A-431; cell viability, CellTiter-Glo; 72 h): < 0.1 µM
Nc1nc2[nH]c(CCCc3ccc(C(=O)O)s3)cc2c(=O)[nH]1 — IC50 (CHO RT16 (human FRα); cell growth; with: folic acid 200 nM): > 1 µM
CS(=O)(=O)c1ccc2nc(NC(=O)Cn3cc(COc4ccc(/C=N\NC(N)=S)cc4)nn3)sc2c1 — IC50 (T47D; cell growth or viability, MTT; 48 h): 130 µM
Cn1cc(CNCC2CCN(c3ncc(C(=O)NO)cn3)CC2)c2ccccc21 — IC50 (NCI-H460; cell viability): 0.03 to 0.043 µM
O=c1c(/C=C/c2ccccc2Br)nc2ccccc2n1Cc1ccccc1 — IC50 (B16-F10; cell growth or viability, MTT; 72 h): 16.9 µM
C=CC(C)(O)Cc1cc(CC(=O)c2ccc(O)cc2O)c(O)cc1O (stereo not shown) — IC50 (Hepa-1c1c7; cell growth or viability): > 100 µM
